Assay results gathered from unrelated publications.
Numbered parts are unrelated; each lists some results of a single study. Changes are numbered by the printed parent chain.

Sample 1
Target: RNA binding protein fox-1 homolog 2, RRM domain, GST-SBP tag (RBFOX2, Homo sapiens, UniProt O43251-10, residues 100-194)
Method: RNA Bind-n-Seq
Molecule type: RNA
Sample: in vitro
Concentration: 365 nM
Notes: natural RNA segment, single round, ends assumed
Baseline: no-protein control
Direction: higher = stronger binding
Constant ends, left off below: GGGAGUUCUACAGUCCGACGAUC … UGGAAUUCUCGGGUGCCAA
Target sequence (chain): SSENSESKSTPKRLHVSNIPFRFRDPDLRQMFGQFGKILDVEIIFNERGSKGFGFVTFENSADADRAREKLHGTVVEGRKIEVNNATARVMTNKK
Sequence	RBNS enrichment (R)
AUGAUCUGUUGUCUGGAGUAUAUGCUACAUGUUCAUUUACUGUACAAAAACCCAGUGCAGCUGAUGAUGCAAAGCAGUCUCUCUCUGUGUACAGUGCCCCACCUAUUUAA	0.351
UCCGUCUACUCACAGAACAGUACUUUCUGGAAUAUUAUGGGGGAUUGUACCAAAACAAGAACCACUUAAACAAUGCCUAGGGAAUGAUAAGGAGGAGGAAAAUCCCAGGU	0.551
CUGCUUCUGAGUUGCCCAGGAGACCACUGGCAGAUGUCCCGGCGAAGAGAAGAGACACAUUGUUGGAAGAAGCAGCCCAUGACAGCUCCCCUUCCUGGGACUCGCCCUCA	0.506
GCAGUGAGCCCAGAGUGGAUUGGCAUUAAACUGGCUGCUUUGACACACCUCAUCUCACCCAAGAGUAUUUCCCAAGUCUGCAGCUUCCGUCAGCGAUUGUUGUGUUACCU	0.232
AAUUAAUUACCCUCCGUUUCCCACAUCCCCACUCUCUAGGGGAUUAGCUUGUGCGUGUCAAAAGAAGGAACAGCUCGUUCUGCUUCCUGCUGAGUCGGUGAAUUCUUUGC	0.456
UGACUACCUUGCUUACAGAUUCAUGGUUUGAUAAAUUUGUUGUAUUCAAAAACUUGAAAUGCAGGACGCCAUUAAGUGUCUGUUUAUAUUUUUGGAAUAUUUGUAUUACU	0.812
CAAACUGAAAUGGAUUUGCACGUUGGGGAGCUGGCGGCGGCGGCUGCUGGGCCUCCGCCUUCUUUUCUACGUGAAAUCAGUGAGGUGAGACUUCCCAGACCCCGGAGGCG	0.91
CCAUUGUUGCAUAGAGAGUGUGCACCGCUGCUAUCUUGCCAGAUCCACACUGGUCCUCCCGAAAGCCAGGUUCAUACACAGCAACUUUUUAAUUAUUCUAACAGUUACCC	0.679
CUCCUUGUAAGAGCUUCAACCCAAGUCCUCCAAUUCACAUUAAGGAAUCCAUACUAAAGGGGGACUUGAGGGUGUGUACCCUACAGGCCAGCCUUCCACAUCGUGUCAGU	0.295
GCUUCCCGGUCCCUCCGCGUGUGCCGAUUCCAGAUGACCUUCCAGUGUCCCCAAGGUUCUUCCAUCUUCUAGACUGUAACCCUGCCUCCCUGCUUCCUGGUCCAGAGCCU	0.413
CUGAAACCUCUCAGCUGUUGAUCUCACAGCAGCUAAAGGGUUGUGCCAAACAUUUUAUUAAGAAAGUAAAGCCCAGAUUUGAAUGGGGGUUUUCCCUAGGCCUUAUAGUA	0.968
UGAAUGGCGCCUCCCCACCUCAUUUCUGGAGUUGCAAUGGUCUCAACUCCCAUCUGAGGUGGGUACCACCCCUUCCUCAGUACCCACCGUGGAUACUGCAUGUGAACUAU	1.26

Sample 2
Target: ABI1, truncated, D143A, DHFR fusion (Arabidopsis thaliana)
Method: DHFR PCA, deep sequencing
Sample: yeast
Notes: methotrexate growth selection, single substitutions
Together with: (+)-ABA 710 µM
Baseline: wild-type fitted maximum
Direction: higher = stronger binding
Parent: PYL1, truncated, DHFR fusion (Arabidopsis thaliana); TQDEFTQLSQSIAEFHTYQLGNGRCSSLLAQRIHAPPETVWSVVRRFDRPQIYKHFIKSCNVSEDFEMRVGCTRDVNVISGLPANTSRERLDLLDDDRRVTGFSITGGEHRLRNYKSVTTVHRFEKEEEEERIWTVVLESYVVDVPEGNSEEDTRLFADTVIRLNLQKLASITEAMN; partner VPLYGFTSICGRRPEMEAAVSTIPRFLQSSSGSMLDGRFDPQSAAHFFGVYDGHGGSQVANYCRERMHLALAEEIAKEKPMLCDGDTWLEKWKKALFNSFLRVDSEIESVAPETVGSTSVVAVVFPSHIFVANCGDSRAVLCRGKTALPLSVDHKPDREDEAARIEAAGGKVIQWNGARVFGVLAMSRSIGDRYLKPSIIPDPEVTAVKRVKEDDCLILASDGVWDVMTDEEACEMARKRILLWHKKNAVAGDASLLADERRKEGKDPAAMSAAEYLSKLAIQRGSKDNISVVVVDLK
Change	relative binding score [%]
D159M	49.5
Q7M	110
V137F	-0.283
R113V	110
D97N	110
I162R	9.72
N114A	93.9
E152K	100
N85K	107
L82C	85.4
I172G	62
V121P	2.95
T86G	99.7
I172P	-9.61
I12T	85.9
P146I	49.9
E152V	95.9
Q7Y	104
R113T	103
K126I	107
S59D	101
I172K	86.2
R46I	84
F66S	99.7
A30M	108

Sample 3
Target: PABPC1L2, full length, GST fusion (mouse, UniProt A0ABA7IW68)
Method: RNAcompete
Molecule type: RNA
Sample: in vitro
Concentration: 20 nM
Notes: 7-mer, probes averaged, single round
Baseline: mean of 7-mers
Direction: higher = stronger binding
Target sequence (chain): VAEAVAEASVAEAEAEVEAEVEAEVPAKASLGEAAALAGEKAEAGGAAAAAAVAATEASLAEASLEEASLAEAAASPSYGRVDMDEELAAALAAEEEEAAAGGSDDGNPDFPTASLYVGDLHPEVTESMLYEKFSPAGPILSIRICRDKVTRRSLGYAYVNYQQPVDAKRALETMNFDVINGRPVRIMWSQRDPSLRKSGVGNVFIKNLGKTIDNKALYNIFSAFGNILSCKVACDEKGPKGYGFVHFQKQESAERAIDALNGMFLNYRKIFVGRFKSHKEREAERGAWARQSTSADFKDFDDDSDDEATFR
Sequence	7-mer Z-score
CGCUGAA	-0.186
GCAAGAC	0.0569
GUGUUAC	-0.251
ACAAGUA	0.144
UCUCUAG	-0.347
GAGUCCG	-0.358
CAAAUAC	0.523
GCGCGUC	-0.237
GAGACAG	0.0478
UUAACAU	-0.0881
AUCCAUU	-0.251
GGCAUUA	0.162
GUGGAGC	0.146
CUUCAAG	-0.229
CGCCGGC	-0.51
GAGACAU	0.00798
CGAGGUC	-0.0536
CUAUCAA	-0.0319
GUAGCGU	-0.208
CAUACUG	-0.231
AGAGACC	0.104
AAUACCA	0.345
CACUGGC	-0.0301
CGUCAUU	-0.307
UUGUCAA	-0.32

Sample 4
Target: Fragile X messenger ribonucleoprotein 1, C-terminal low-complexity region (Fmr1, Mus musculus, UniProt P35922)
Method: RNA Bind-n-Seq
Molecule type: RNA
Sample: in vitro
Concentration: 200 nM
Notes: whole 134-nt RNA, ends assumed
Together with: 150 mM KCl
Baseline: input library
Direction: higher = stronger binding
Constant ends, left off below: GGGAGUUCUACAGUCCGACGAUC … UGGAAUUCUCGGGUGUCAAGG
Sequence	log2 enrichment
AGUCCUGUGCUACACAUCGUAUGUACCGAAUCGGGGUGGGGAGGGGAAAAAAAGGGGAAAGUAUUAUGUUACGCCGUUCGGAUCUGCACU	0.539
UAACUUUAGAGGAGGAUCUGAUGGAUAUGGCAGUGGACGUGGAUUUGGGGAUUGCUAUAAUGGGUAUGGAGGAGGACCUGGAGGUGGCAA	0.348
UCCUCAAGUCCUGUGCUACACAUCGUAUGUACCGAAUCGGAGGUUUGGAGGAAAGUAUUAUGUUACGCCGUUCGGAUCUGCACUUCCAGC	-0.638
AAGUCCUGUGCUACACAUCGUAUGUACCGAAUCGGUUUUGGGUUUUGGGGUUUUGGGAAAGUAUUAUGUUACGCCGUUCGGAUCUGCACU	-0.21
UCAAGUCCUGUGCUACACAUCGUAUGUACCGAAUCGGCCCGGCCCGGGCCCGGGAAAGUAUUAUGUUACGCCGUUCGGAUCUGCACUUCC	-0.462
ACCAUGCAGGUGGGCAUCUUUGGGAAGUGGGGCAAGGGGGGGAUAGGGAGGGGGGUAACACUUUGGGAACAGGUGGUCCCUGGUCGUUUC	0.798
UCCUGUGCUACACAUCGUAUGUACCGAAUCGGUUUUUUGGGGUUUUUUGGGUUUUUUGGGAAAGUAUUAUGUUACGCCGUUCGGAUCUGC	0.0616
AGUCCUGUGCUACACAUCGUAUGUACCGAAUCGGGGCCCCGGGCCCCGGGCCCCGGGAAAGUAUUAUGUUACGCCGUUCGGAUCUGCACU	0.0013
AAAUAUCAGUGAUCAUCGCAAGGAAGGAGGCAGACAAGAGUAAGGCACACCUGACUCUUAGGACUAGCAGUCAGAACCAGGAGGAAAGGU	-0.117
AGUCCUGUGCUACACAUCGUAUGUACCGAAUCGGGGAAAGGGGAAAAAGGGGAGGGGAAAGUAUUAUGUUACGCCGUUCGGAUCUGCACU	0.545
CACAGACAACACGCACCCACACAGACACAGAGGGAAGGGGUUGGGAUGGGGACAGGGUGCACAGCAGGGCGGGGUAGGACCAAAGCCCCU	1.17
AAGUCCUGUGCUACACAUCGUAUGUACCGAAUCGGGGAAAAGGAAAAGGGGAAAAGGAAAGUAUUAUGUUACGCCGUUCGGAUCUGCACU	-0.182
GUCCUGUGCUACACAUCGUAUGUACCGAAUCGGGGAAAAAGGAAAAAGGGAAAAAGGGGAAAGUAUUAUGUUACGCCGUUCGGAUCUGCA	-0.116
CUGUGCUACACAUCGUAUGUACCGAAUCGGGUUUUUUGGGGUUUUUUGGGGUUUUUUGGGGAAAGUAUUAUGUUACGCCGUUCGGAUCUG	-0.129

Sample 5
Organism: Saccharomyces cerevisiae
Read-out: binding
Method: competitive growth deep sequencing
Molecule type: peptide
Strain: cyclin E1-Cln2 fusion strain
Concentration: concentration not given
Notes: peptide tiling library
Direction: direction not given
Sequence	growth enrichment score
IPDRSTKPVVFSPT	0.392
ALTMEALEDPSPELME	1.51
VKRLNFRSEEME	0.0551
EPRNLLSLFEDTLDPT	1.24
LRRQLSFSED	0.289
GQLVIPLDELTLDTSF	1.33
IVLICAKRSLCAAFSV	-0.0177
ESSQLTVQAEFDMSAI	-0.00248
FREFEVEKQTAEETGL	1.14
RRVLCFDS	0.421
DTERAHSTLDEDLERW	-1.64
SCCKRKLVVGNGPEGP	-0.615
DSDSDSEGGAAGGEAD	1.05
RKLHFEDEVT	2.18
NARRSLNFGGSTGT	0.22
TARRIFQEPTEPKTKA	-0.0608
SAVPLILPQAPSGPSY	1.4

For quick reference, copied from above (sample 2):
Change	relative binding score [%]
V137F	-0.283
R113V	110
D97N	110
I162R	9.72
N114A	93.9
E152K	100
N85K	107
L82C	85.4
I172G	62
